Results from different studies.
Parts stem from different laboratories: compare values within a part only. Changes are numbered by the printed parent chain.

Set 1
Target: RING finger protein unkempt homolog, zinc fingers 1-6, GST-SBP tag (UNK, Homo sapiens, UniProt Q9C0B0, residues 30-357)
Sequence of UniProt Q9C0B0 (30-357, looked up): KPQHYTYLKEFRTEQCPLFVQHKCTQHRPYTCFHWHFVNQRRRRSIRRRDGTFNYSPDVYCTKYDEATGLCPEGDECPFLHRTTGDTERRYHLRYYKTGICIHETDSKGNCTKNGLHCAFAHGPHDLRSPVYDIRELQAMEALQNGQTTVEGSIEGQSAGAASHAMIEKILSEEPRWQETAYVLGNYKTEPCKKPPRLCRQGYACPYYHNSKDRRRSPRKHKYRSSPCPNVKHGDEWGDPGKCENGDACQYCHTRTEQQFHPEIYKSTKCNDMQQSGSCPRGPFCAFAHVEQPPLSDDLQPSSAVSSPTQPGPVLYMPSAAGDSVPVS
Method: RNA Bind-n-Seq
Molecule type: RNA
Medium: in vitro
Tested at: not given
Notes: RNA with constant flanks, ends assumed
Baseline: input RNA pool
Reading: higher = stronger binding
All sequences stand within: GGGAGUUCUACAGUCCGACGAUC … CAACAGAGGAUUGAGCAUCA
| Sequence | bound/input enrichment |
| --- | --- |
| GAACCUGCUGAUGCAUCAGUAGUCCUGUGUAAAGAGCCCACCGCCUUUGAGGUUCCUCAGCUCCGUGUUUGUGGAGGUUCUGAAGACGCUGACAUAUUAUCCAGUUCAGGUCAUGACACA | 0.153 ratio |
| UCAGAAGAGGUGCUGGGUCACUUUCCGUAUCCUGAUCCUUCCCAGUGGACAGAUGAAGAAUCCGGUAUCCCUCCUGAUGAUGAAGACUGAAGGUGUAGACUCAGCCUCACUCUGUACAAG | 0.105 ratio |
| CAGAAACUGGAAGAGAUGGUCACCCGCUUAGAUCAAGAAGUAGCUGAAGUUGAUAAAAACACCGAACUUUUGAAAAAGAAGGAUGAAGAACUAAGUUCUGCUCUGGAGAAAAUGGAAAAU | 1.61 ratio |
| ACUGAGCAGAAUGAAGAACUGAGCAUCUUAUAUCCAGCCGCCAUUGUGACGAUUGAUGGAUUCCGUCUCUUUCAGUCUCUUCGAGCCUGUCGAAACCAAGUAGCAAAAGCUGCAGCAUCA | 0.144 ratio |
| UGGGUUUGGGGUAGAAGGGUGGGAAGGGGCAGGAUAAGUGGAAUCUCUAGGGUGUAUGGGAAGCCGAGGGCAGUUAGUUCUAAGUGGGCUUUUAUGUUCCCUGUUGUGAGGGUGAGAACA | 32.5 ratio |
| UUCUGGUUUCCUUGGAGAAAAGCUCUGCUGCCCUGAUUAUGAACUCUAUAAUAGAGUAUACCGCUUUUGUACCUUUUUUACAGGAAGGUGACUUUCUGUAAUCAUGUGAUGUAUAUUAAA | 0.643 ratio |

Set 2
Target: CCNE2, cyclin fold, Cln2 fusion (human)
Method: yeast growth competition, sequencing
Medium: yeast
Notes: weak parent motif
Baseline: not given
Reading: higher = stronger binding
Parent: CDC6 docking peptide (human); TLKGRRLVFDNQL
| Substitution | normalised enrichment score |
| --- | --- |
| TLKGRRLVFDNQM [L13M] | -0.0353 |
| TLGGRRLVFDNQL [K3G] | -0.0968 |
| TLKGRELVFDNQL [R6E] | -1 |
| TSKGRRLVFDNQL [L2S] | -0.805 |

Set 3
Target: Sal-like protein 4, full length isoform B (SALL4, Homo sapiens, UniProt Q9UJQ4-2, residues 1-616)
Method: universal PBM
Molecule type: double-stranded DNA, one strand shown
Medium: in vitro
Tested at: not given
Notes: 8-mer, flanks averaged, mean of replicates
Reading: higher = stronger binding
| Sequence | E-score |
| --- | --- |
| GAGATTAA | 0.13 |
| AATCAAAC | 0.108 |
| CTCTAACC | -0.281 |
| CCCAGCGC | -0.332 |
| AACGTAAC | 0.0927 |
| CTACGCGC | -0.277 |

Further values, each from its own experiment
| Molecule | target | test | test system | setting | scale | endpoint | value |
| --- | --- | --- | --- | --- | --- | --- | --- |
| PhoQ, residues 284 288 289 292 302 303 SLCLSL | PhoP, residues 12 14 15 18 19 LYHSL (Escherichia coli, UniProt P23836) | Sort-seq, item: YFP reporter | E. coli | PhoQ-PhoP variant library, with: 10 µM Mg2+ | baseline: high Mg2+ state, higher = stronger signaling | fold induction | 0.993 |

Some of these lines once more (set 1):
| Sequence | bound/input enrichment |
| --- | --- |
| UCAGAAGAGGUGCUGGGUCACUUUCCGUAUCCUGAUCCUUCCCAGUGGACAGAUGAAGAAUCCGGUAUCCCUCCUGAUGAUGAAGACUGAAGGUGUAGACUCAGCCUCACUCUGUACAAG | 0.105 ratio |
| CAGAAACUGGAAGAGAUGGUCACCCGCUUAGAUCAAGAAGUAGCUGAAGUUGAUAAAAACACCGAACUUUUGAAAAAGAAGGAUGAAGAACUAAGUUCUGCUCUGGAGAAAAUGGAAAAU | 1.61 ratio |
